Experimental data gathered from unrelated publications.
Lines come from different studies, so protocols differ. ± marks the error that the study gave.

Compound = CC(=O)c1ccc(NC(=O)CSc2nnc(-c3ccc(NC(=O)c4cccnc4)cc3)n2N)cc1; cell line = RAW264.7; assay = IL-6 release, inhibitor, ELISA; conditions = LPS-stimulated; IC50 = 17 µM
Compound = C=CCc1ccc(OCc2nn(CN3CCCC3)c(=S)o2)c(OC)c1; cell line = MCF7, SK-OV-3, PC-3; assay = cell growth, MTT; IC50 = ≤ 10 µM
Compound = CC(=O)c1ccc(NC(=O)CSc2nnc(-c3ccc(NC(=O)c4cccnc4)cc3)o2)cc1; cell line = RAW264.7; assay = IL-6 release, inhibitor, ELISA; conditions = LPS-stimulated; IC50 = 1.4 µM
Compound = O=C1C(=Cc2ccccc2)CN(C(=O)c2cccc(C(=O)N3CC(=Cc4ccccc4)C(=O)C(=Cc4ccccc4)C3)c2)CC1=Cc1ccccc1; cell line = Molt4/C8; assay = cell growth or viability; IC50 = 12.5 µM
Compound = COc1cc(C(Nc2ccccn2)c2cc3c(cc2O)OCO3)cc(OC)c1OC (stereo not drawn); cell line = HeLa Stat3-luciferase; assay = reporter gene; conditions = 8 h, together with: OSM; IC50 = 3 to 10 µM
Compound = O=c1c(/C=C/c2ccccc2Br)nc2ccccc2n1Cc1ccccc1; cell line = HeLa 229; assay = cell growth or viability, MTT; conditions = 72 h; IC50 = > 50 µM
Compound = Ic1cccc2cnccc12; cell line = axotomized mouse DRG neurons; assay = axon degeneration; conditions = 16 h; IC50 = 2.1 µM
Compound = COC1=C(OC)[C@H](O)[C@H](C/C=C(\C)CC/C=C(\C)CCC=C(C)C)[C@@H](C)C1=O; cell line = LNCaP; assay = cell growth or viability, MTS; conditions = 72 h; IC50 = 22 µM
Compound = O=C1C(n2nc(-c3c(O)c4ccccc4oc3=O)cc2-c2ccc(Cl)cc2)c2cc(Cl)ccc2N1Cc1ccccc1 (stereo not drawn); cell line = A-375; assay = cell growth or viability, SRB; conditions = 72 h; IC50 = 1.09 µM
Compound = CCSc1nnc(-c2n[nH]c(=O)c3ccccc23)o1; cell line = WI-38; assay = cell growth or viability, MTT; conditions = 48 h; IC50 = 39.1 µM
Compound = C[C@]12CC[C@@H]3c4ccc(O)cc4C[C@@H](CCCCCCCCC[S+]([O-])CCCC(F)(F)C(F)(F)F)[C@H]3[C@@H]1CC[C@@H]2O (stereo partly drawn); cell line = CAMA-1; assay = cell growth or viability; conditions = 7 days; IC50 = 0.0126 µM
Compound = N.N.O=C([O-])C1(C(=O)[O-])CCC1.[Pt+2]; cell line = H1703; assay = cell viability, MTT; conditions = 4 h, together with: cimetidine 3 mmol/L; IC50 = 640 ± 26.9 µM
Compound = Nn1c(SCC(=O)Nc2ccc([N+](=O)[O-])cc2)nnc1-c1ccc(NC(=O)c2cccnc2)cc1; cell line = RAW264.7; assay = reactive oxygen species, inhibitor, fluorescence; conditions = LPS-stimulated; IC50 = 3.31 µM
Compound = CCNC(=O)Nc1ccc(S(=O)(=O)Oc2cnccc2Br)cc1; cell line = MOLM-13; assay = cell growth or viability, MTT; conditions = 48 h; IC50 = 2.5 µM
Compound = CCOc1ccc(N(C)c2nc(N)nc3[nH]c4ccccc4c23)cc1; cell line = HeLa transfected with βIII-tubulin; assay = cell growth, SRB; IC50 = 0.0188 ± 0.0005 µM
Compound = CN1CCN(c2ccc3nc(-c4c(N)c5c(F)cccc5[nH]c4=O)[nH]c3c2)CC1; cell line = HeLa 229; assay = cell growth or viability, MTT; conditions = 72 h; IC50 = > 50 µM
Compound = Cc1cc(C(=O)/C(=C\c2ccc(Br)cc2)c2ccc(Br)cc2)c(C(=O)N2CCCCC2)c(=O)[nH]1; cell line = A-375; assay = cell proliferation, MTT; conditions = 72 h; IC50 = > 10 µM
Compound = Cc1ccc(C#Cc2cccc(-c3nn(-c4nc(C(=O)O)cs4)c(C(C)C4CC4)c3Cc3ccc(S(N)(=O)=O)c(F)c3)c2)s1 (stereo not drawn); cell line = MIA PaCa-2; assay = cell growth or viability; conditions = 48 h; IC50 = 9.35 µM
Compound = O=c1c2ccccc2c(-c2nnc(SCNc3ccccc3Cl)o2)nn1CNc1ccccc1Cl; cell line = WI-38; assay = MTT; conditions = 48 h; IC50 = ~23 µM
Compound = Cn1c(=O)c(/C=C/c2ccccc2Cl)nc2ccccc21; cell line = HeLa 229; assay = cell growth or viability, MTT; conditions = 72 h; IC50 = 11.8 µM
Compound = CC[C@H](CC[C@@H](C)[C@H]1CC[C@H]2[C@@H]3CC=C4C[C@@H](O)CC[C@]4(C)[C@H]3CC[C@]12C)C(C)C; cell line = MCF-10A; assay = cell growth or viability, resazurin; conditions = 24 h; IC50 = 233 µg/mL
Compound = COc1cc(OC)c2c(O)cc(C(=O)NCCCN3CCOCC3)cc2c1; cell line = C26, HepG2, MCF7; assay = cytotoxicity, MTT; conditions = range over three cell lines; IC50 = 14.5 to 25.1 µM
Compound = Cc1cn(-c2cc(NC(=O)c3ccc(C)c(Nc4nccc(-c5cccnc5)n4)c3)cc(C(F)(F)F)c2)cn1; cell line = GIST882; assay = cell growth or viability, resazurin; conditions = 72 h; IC50 = 0.1 µM
Compound = Cc1ccc(NC(=O)CSc2nnc(-c3ccc(NC(=O)c4cccnc4)cc3)o2)cc1; cell line = RAW264.7; assay = NO release, inhibitor, Griess; conditions = LPS-stimulated; IC50 = 18.9 µM
Compound = O=C1C(n2nc(-c3c(O)c4ccccc4oc3=O)cc2-c2ccc(Br)cc2)c2cc(Cl)ccc2N1Cc1ccccc1 (stereo not drawn); cell line = A-375; assay = cell growth or viability, SRB; conditions = 72 h; IC50 = 4.36 µM
Compound = Cc1ccc(NC(=O)CSc2nnc(-c3ccc(NC(=O)c4cccnc4)cc3)n2N)cc1; cell line = RAW264.7; assay = reactive oxygen species, inhibitor, fluorescence; conditions = LPS-stimulated; IC50 = 3.01 µM
Compound = CC(C)Oc1ccc(C(=O)Cn2ccnc2)cc1-n1c(CN2CCN(C(=O)COc3ccc(Cl)cc3)CC2)nc2ccccc2c1=O; cell line = SU-DHL10; assay = cell viability, CellTiter-Glo; conditions = 24 h; IC50 = < 0.1 µM
Compound = Cc1ccc(C(C)C)cc1.Cc1ccc(C(C)C)cc1.[Cl][Ru][Cl].[Cl][Ru][Cl]; cell line = WM-115; assay = cell growth or viability, MTT; conditions = 48 h; IC50 = > 1000 µM
Compound = C=CC(=O)NCc1ccc(C(=O)Nc2ccccc2Oc2ccc(OCC)cc2)cc1; cell line = HEK293T; assay = MYC transcriptional activity, inhibitor, luciferase reporter; conditions = 24 h; IC50 = 2.8 µM
Compound = CC(C)(O)C(O)Cc1c(O)cc(/C=C/c2ccc(O)cc2)cc1O (stereo not drawn); cell line = HL-60; assay = reactive oxygen species, inhibitor, fluorescence; IC50 = 0.4 µg/mL
Compound = [NH2][Pt]12([NH2])([O]C(=O)CC(=O)[O]1)[O]C(=O)CC(=O)[O]2; cell line = SW480; assay = cell viability, MTT; conditions = 96 h; IC50 = > 200 µM
Compound = O=C(O)c1cc(O)c2c(c1)C(=O)c1cccc(O)c1C2=O; cell line = U-937; assay = cell growth or viability, ATP luminescence; conditions = 24 h; IC50 = 135 µM
Compound = COc1cc(/C=C/c2ccc(O)cc2)cc(OC)c1; cell line = HL-60; assay = reactive oxygen species, inhibitor, fluorescence; IC50 = 0.3 µg/mL
Compound = CCCCCC(O)C=CCO (stereo not drawn); cell line = SH-SY5Y; assay = cell growth or viability, SRB; conditions = 24 h; IC50 = 758 µM
Compound = CCN1C(=O)C(n2nc(-c3c(O)c4ccccc4oc3=O)cc2-c2ccc(Cl)cc2)c2cc(Cl)ccc21 (stereo not drawn); cell line = A-375; assay = cell growth or viability, SRB; conditions = 72 h; IC50 = 7.32 µM
Compound = CCN(CC)CC1CCN(c2ncc3ncnc(Nc4ccc(F)c(Cl)c4)c3n2)CC1; cell line = H2030 (EGFR wild type); assay = cell viability, Alamar Blue; conditions = 120 h; IC50 = 3.1 ± 0.7 µM
Compound = O=C1Nc2ccc(OC(F)(F)F)cc2C1n1nc(-c2c(O)c3ccccc3oc2=O)cc1-c1ccc(Cl)cc1 (stereo not drawn); cell line = A-375; assay = cell growth or viability, SRB; conditions = 72 h; IC50 = 4.17 µM
Compound = CCc1ccc(Nc2c(F)cc3c(=O)c(C(=O)O)cn(C4CC4)c3c2[N+](=O)[O-])cc1; cell line = Caco-2; assay = cell growth or viability, SRB; conditions = 72 h; IC50 = 828 µg/mL
Compound = CCNC(=O)Nc1ccc(S(=O)(=O)Oc2cccnc2I)cc1; cell line = MOLM-13; assay = cell growth or viability, MTT; conditions = 48 h; IC50 = 0.8 µM
Compound = Cn1cc(Nc2nccc(-c3ccc4c(c3)CN(C3COC3)CC[C@H]4NC(=O)c3cn(C(C)(C)C)nn3)n2)cn1; cell line = Ramos; assay = PLCγ2 Y1217 phosphorylation; conditions = together with: anti-IgM; IC50 = 0.0069 µM
Compound = CC(C)C[C@H]1NC(=O)[C@H](CC(=O)O)NC(=O)CNC(=O)[C@H](CCCNC(=N)N)NC(=O)[C@H](C)NC1=O; cell line = WM-115; assay = WM-115 cell adhesion, inhibitor; conditions = 1 h, together with: immobilized CagL^E90A; IC50 = 0.88 µM
Compound = Cc1ccc(C)c(NC(=O)CSc2nnc(-c3ccc(NC(=O)c4cccnc4)cc3)n2N)c1; cell line = RAW264.7; assay = reactive oxygen species, inhibitor, fluorescence; conditions = LPS-stimulated; IC50 = 44.3 µM

Some of these lines once more:
Compound = Cc1ccc(NC(=O)CSc2nnc(-c3ccc(NC(=O)c4cccnc4)cc3)n2N)cc1; cell line = RAW264.7; assay = reactive oxygen species, inhibitor, fluorescence; conditions = LPS-stimulated; IC50 = 3.01 µM
Compound = CC(C)Oc1ccc(C(=O)Cn2ccnc2)cc1-n1c(CN2CCN(C(=O)COc3ccc(Cl)cc3)CC2)nc2ccccc2c1=O; cell line = SU-DHL10; assay = cell viability, CellTiter-Glo; conditions = 24 h; IC50 = < 0.1 µM
Compound = Cc1ccc(C(C)C)cc1.Cc1ccc(C(C)C)cc1.[Cl][Ru][Cl].[Cl][Ru][Cl]; cell line = WM-115; assay = cell growth or viability, MTT; conditions = 48 h; IC50 = > 1000 µM
Compound = C=CC(=O)NCc1ccc(C(=O)Nc2ccccc2Oc2ccc(OCC)cc2)cc1; cell line = HEK293T; assay = MYC transcriptional activity, inhibitor, luciferase reporter; conditions = 24 h; IC50 = 2.8 µM
